Assay results gathered from unrelated publications.
Numbered parts are unrelated; each lists some results of a single study. Positions count from the first letter of the parent shown.

Block 1
Molecule: HNRNPA1 (Homo sapiens, UniProt P09651)
Technique: cross-linking MS
Notes: hits only
Endpoint: interaction screen
PTBP1 (Homo sapiens, UniProt P26599): cross-linked
HNRNPA3 (Homo sapiens, UniProt P51991): cross-linked
FUBP3 (Homo sapiens, UniProt Q96I24): cross-linked
MATR3 (Homo sapiens, UniProt P43243): cross-linked
HNRNPD (Homo sapiens, UniProt Q14103): cross-linked

Block 2
Target: CCNA2, cyclin fold, Cln2 fusion (human)
Technique: yeast growth competition, sequencing
Matrix: yeast
Notes: strong parent motif
Reference: not given
Reading: higher = stronger binding
Endpoint: normalised enrichment score
Starting sequence: viral docking peptide; TSVRRALFTGGSD; partner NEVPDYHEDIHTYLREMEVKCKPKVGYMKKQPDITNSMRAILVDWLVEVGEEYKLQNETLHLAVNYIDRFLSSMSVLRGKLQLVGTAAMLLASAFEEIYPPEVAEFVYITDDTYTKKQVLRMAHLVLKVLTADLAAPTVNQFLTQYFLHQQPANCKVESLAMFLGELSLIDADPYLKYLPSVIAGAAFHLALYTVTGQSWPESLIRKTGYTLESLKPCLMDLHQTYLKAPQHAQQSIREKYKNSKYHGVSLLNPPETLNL
G11Q: 6.54
S12N: 6.2
G10D: 6.19
T9H: 6.06
G10F: 5.7
R5M: 1.39
R5L: 0.438
T9A: 5.88
A6N: 5.27
S2K: 6.67
R5P: -0.595
F8V: 0.375
V3T: 4.89
V3E: 0.33
R5F: 0.193
S2T: 6.55
T9Q: 5.97
T9Y: 6.35
S2R: 6.52
A6I: 4.55
T9P: 6.52
L7N: 0.274
V3K: 0.966
V3D: -0.146
A6W: 0.899

Block 3
Target: Centromere-binding protein 1, full length, N-terminal tag (CBF1, Saccharomyces cerevisiae, UniProt P17106, residues 1-351)
UniProt P17106, sequence (whole entry, looked up): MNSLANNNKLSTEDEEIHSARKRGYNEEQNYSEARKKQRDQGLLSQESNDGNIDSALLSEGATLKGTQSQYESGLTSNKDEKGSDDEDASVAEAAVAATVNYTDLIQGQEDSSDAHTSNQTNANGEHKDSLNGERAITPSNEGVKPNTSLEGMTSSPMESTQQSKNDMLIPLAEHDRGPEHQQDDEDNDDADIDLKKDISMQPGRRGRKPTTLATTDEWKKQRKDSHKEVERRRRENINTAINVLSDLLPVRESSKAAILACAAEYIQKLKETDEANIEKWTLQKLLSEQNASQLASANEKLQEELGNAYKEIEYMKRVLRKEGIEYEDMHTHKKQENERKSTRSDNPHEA
Technique: protein-binding microarray
Form: double-stranded DNA, one strand shown
Matrix: in vitro
Tested at: 0.8 µM
Notes: whole 60-bp probe, no competitor
Reading: higher = stronger binding
Endpoint: fluorescence intensity
CTAGCAAAAGCGCACCACCAAAAGAGAAAAAAGTTCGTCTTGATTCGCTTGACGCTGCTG: 526 a.u.
TGTACGAAGCTATTACACGTTTGTATAGTAGTTAGGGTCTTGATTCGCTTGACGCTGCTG: 545 a.u.
GAAGCAGGATGAAATCACGGGCGATGGGACCACTAGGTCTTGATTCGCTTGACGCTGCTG: 792 a.u.
TGTACGAAGCTATTGCACACGTATATAGTAGTTAGGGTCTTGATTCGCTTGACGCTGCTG: 520 a.u.
GAATTTTGCCGAAAGCACATGCTTGTCTTTGTATAGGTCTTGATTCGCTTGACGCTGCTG: 700 a.u.
CTAGGACGCTTCGGCGAGCTGATGTCTGACTTCTTCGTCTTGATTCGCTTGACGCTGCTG: 478 a.u.
CTAGATCGTCAGTTTCACGTTCGCGGTTCGAACTTCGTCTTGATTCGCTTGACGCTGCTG: 531 a.u.
CTAAGTCACCTATTTCCCGTGCTTTTCGCATTCTTCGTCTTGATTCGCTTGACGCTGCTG: 558 a.u.

Block 4
Target: ATF1, bZIP domain (human)
Technique: DHFR protein complementation
Matrix: yeast
Notes: single substitutions, most at no-binding floor
Reference: wild-type JUN-FOS pair
Reading: higher = stronger binding
Endpoint: binding fitness
Starting sequence: JUN, bZIP domain (human); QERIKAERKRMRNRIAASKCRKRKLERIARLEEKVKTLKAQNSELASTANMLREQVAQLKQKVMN; partner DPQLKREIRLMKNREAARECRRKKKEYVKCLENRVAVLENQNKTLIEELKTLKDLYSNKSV
K34S: -1.54 natural log
M51T: -1.56 natural log
S47R: -1.52 natural log
E33T: -1.49 natural log
R30L: -1.46 natural log
L52K: -1.57 natural log
I28K: -1.42 natural log
M51P: -1.47 natural log

Block 5
Target: UDP-N-acetylglucosamine--peptide N-acetylglucosaminyltransferase 110 kDa subunit (OGT, Homo sapiens, UniProt O15294)
Effect on: binding
Technique: phage display NGS
Form: peptide
Notes: panning round 2
Reference: input library
Endpoint: minimum log2 enrichment ratio
Target sequence (O15294 1-1046): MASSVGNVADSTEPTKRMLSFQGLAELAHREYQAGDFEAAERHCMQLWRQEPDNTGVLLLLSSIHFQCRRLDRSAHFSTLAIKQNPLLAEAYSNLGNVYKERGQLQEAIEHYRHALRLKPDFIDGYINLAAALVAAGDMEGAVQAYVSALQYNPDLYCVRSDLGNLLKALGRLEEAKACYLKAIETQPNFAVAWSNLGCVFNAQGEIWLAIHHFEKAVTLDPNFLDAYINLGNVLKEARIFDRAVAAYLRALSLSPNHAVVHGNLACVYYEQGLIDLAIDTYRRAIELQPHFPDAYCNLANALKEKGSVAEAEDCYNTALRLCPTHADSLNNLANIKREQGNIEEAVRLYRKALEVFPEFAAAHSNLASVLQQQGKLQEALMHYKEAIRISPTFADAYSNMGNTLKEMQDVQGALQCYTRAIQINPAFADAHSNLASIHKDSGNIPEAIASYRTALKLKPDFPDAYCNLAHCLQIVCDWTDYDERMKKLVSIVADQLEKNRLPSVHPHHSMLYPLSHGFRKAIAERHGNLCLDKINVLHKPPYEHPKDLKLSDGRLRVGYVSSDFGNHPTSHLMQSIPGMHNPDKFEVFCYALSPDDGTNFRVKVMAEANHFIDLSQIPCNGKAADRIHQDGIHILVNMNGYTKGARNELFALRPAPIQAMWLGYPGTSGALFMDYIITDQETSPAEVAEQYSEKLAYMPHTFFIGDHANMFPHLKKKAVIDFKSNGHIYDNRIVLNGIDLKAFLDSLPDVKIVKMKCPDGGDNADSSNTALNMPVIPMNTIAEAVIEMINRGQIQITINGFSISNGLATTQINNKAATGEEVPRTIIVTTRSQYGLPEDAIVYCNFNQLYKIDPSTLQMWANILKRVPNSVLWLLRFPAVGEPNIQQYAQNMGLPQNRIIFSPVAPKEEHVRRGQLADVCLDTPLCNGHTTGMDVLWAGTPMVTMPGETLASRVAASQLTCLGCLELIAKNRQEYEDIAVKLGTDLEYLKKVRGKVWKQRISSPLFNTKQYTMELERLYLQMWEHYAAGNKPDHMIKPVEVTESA
SPWHHMHHHPTDSVA: 2.24
SHPIHHSLIKMKHNH: 1.92
HSFMSYHLHTYHSMP: 2.82
HMGMHQVLRIHQIHG: 2.56

Further values, each from its own experiment
C[C@@H]1C[C@H]2[C@@H]3C[C@H](F)C4=CC(=O)C=C[C@]4(C)[C@@]3(F)[C@@H](O)C[C@]2(C)[C@@]1(O)C(=O)COC(=O)C(C)(C)C
parasite load (Plasmodium berghei; Huh-7, liver stage; 10 µM, 24 h; reference: control): 110%

Excerpt of the above (block 2):
G10D: 6.19
T9H: 6.06
G10F: 5.7
R5M: 1.39
R5L: 0.438
T9A: 5.88
A6N: 5.27
